Results collected from several papers.
Protocols differ between the studies behind these lines. ± gives the spread as reported.
Cell line: MDA-MB-468

SMILES	assay	setting	how to read	quantity	result
CC(=O)N[C@@H](Cc1ccc(O)cc1)CN(CC(=O)N[C@@H](CCCCN)CN(CC(=O)N[C@@H](Cc1ccccc1)CN(CC(=O)N[C@H]1CCCCNc2c(F)c(F)c(c(F)c2F)S(=O)(=O)c2c(F)c(F)c(c(F)c2F)NCCCC[C@@H](CN(CC(=O)N[C@@H](C)CN(CC(N)=O)S(C)(=O)=O)S(C)(=O)=O)NC(=O)CN(S(=O)(=O)CC(C)C)C[C@H](Cc2ccccc2)NC(=O)CN(S(=O)(=O)CCN)C1)S(=O)(=O)c1ccc(Cl)cc1)S(=O)(=O)CCN)S(C)(=O)=O	cell growth or viability, CCK-8	72 h		GI50	10.1 µM
N=C(N)NCCC[C@H](NC(=O)[C@H](Cc1c[nH]c2ccccc12)NC(=O)[C@H](CCC(N)=O)NC(=O)[C@H](Cc1c[nH]c2ccccc12)NC(=O)[C@H](CCCNC(=N)N)NC(=O)[C@H](Cc1c[nH]c2ccccc12)NC(=O)[C@H](CCC(N)=O)NC(=O)[C@H](Cc1c[nH]c2ccccc12)NC(=O)[C@@H](N)CCCNC(=N)N)C(N)=O	MTT	concentration not given, 2 h, 37 °C, 5% FBS	baseline: untreated cells	viability	23 ± 4%
Cc1c(C)c(C)[c-](C)c1C.[C-]#[O+].[C-]#[O+].[C-]#[O+].[Cl-].[Cl-].[Cl-].[Ir+3].[Re+].c1cnc(-c2ncccn2)nc1	PI flow cytometry	50 µM		G2/M-phase cells	42.7%
C[C@H](NC(=O)[C@H](Cc1c[nH]c2ccccc12)NC(=O)[C@@H](N)CCCNC(=N)N)C(=O)N[C@@H](Cc1c[nH]c2ccccc12)C(=O)N[C@@H](CCCNC(=N)N)C(=O)N[C@@H](Cc1c[nH]c2ccccc12)C(=O)N[C@@H](CCC(N)=O)C(=O)N[C@@H](Cc1c[nH]c2ccccc12)C(=O)N[C@@H](CCCNC(=N)N)C(N)=O	MTT	concentration not given, 24 h, 37 °C, 5% FBS	baseline: untreated cells	viability	40 ± 6%
CC(=C(c1ccc(O)cc1)c1ccc(Cl)cc1)c1ccc(Cl)cc1	cell growth or viability, SRB			GI50	0.67 µM
CC(=O)N[C@@H](Cc1ccc(O)cc1)CN(CC(=O)N[C@@H](CCCCN)CN(CC(=O)N[C@@H](Cc1ccccc1)CN(CC(=O)N[C@H]1CCCCNc2c(F)c(F)c(c(F)c2F)S(=O)(=O)c2c(F)c(F)c(c(F)c2F)NCCCC[C@@H](CN(CC(=O)N[C@@H](C)CN(CC(N)=O)S(C)(=O)=O)S(C)(=O)=O)NC(=O)CN(S(=O)(=O)Cc2ccccc2)C[C@H](CC(C)C)NC(=O)CN(S(=O)(=O)CCN)C1)S(=O)(=O)CC(C)C)S(=O)(=O)CCN)S(C)(=O)=O	cell growth or viability, CCK-8	72 h		GI50	4.63 µM
CC(=O)OC[C@H]1O[C@@H](Sc2sc(C(=O)c3ccc(C)cc3)c(N)c2-c2nc3ccccc3s2)[C@H](OC(C)=O)[C@@H](OC(C)=O)[C@@H]1OC(C)=O	SRB	10 µM, 48 h	baseline: untreated	growth	73.6%
COc1ccc2c(c1)CCn1c[n+]3c(c1-2)-c1ccc(OC)cc1CC3	Western blot, item: p-PERK Thr980, p-eIF2α Ser51	20 µM, 24 h		protein phosphorylation	increased
CCCCCCCCn1c(-c2cccnc2)nc(-c2ccc(C)cc2)c1-c1ccc(C)cc1	cell growth or viability, SRB	48 h		IC50	82.4 µM
C[C@H](N)C(=O)N[C@@H](Cc1c[nH]c2ccccc12)C(=O)N[C@@H](CCC(N)=O)C(=O)N[C@@H](Cc1c[nH]c2ccccc12)C(=O)N[C@@H](CCCNC(=N)N)C(=O)N[C@@H](Cc1c[nH]c2ccccc12)C(=O)N[C@@H](CCC(N)=O)C(=O)N[C@@H](Cc1c[nH]c2ccccc12)C(=O)N[C@@H](CCCNC(=N)N)C(N)=O	MTT	concentration not given, 48 h, 37 °C, 5% FBS	baseline: untreated cells	viability	51 ± 2%
CCCCCCCCCCCCn1c(-c2cccnc2)nc(-c2ccc(C)cc2)c1-c1ccc(C)cc1	cell growth or viability, SRB	48 h		IC50	> 100 µM
CC(=O)OC[C@H]1O[C@@H](Sc2sc(C(=O)c3ccc(Br)cc3)c(N)c2-c2nc3ccccc3s2)[C@H](OC(C)=O)[C@@H](OC(C)=O)[C@H]1OC(C)=O	SRB	10 µM, 48 h	baseline: untreated	growth	91.9%
CCCCCCCCn1c(-c2cccnc2)nc(-c2ccccc2)c1-c1ccccc1	cell growth or viability, SRB	48 h		IC50	87.2 µM
NS(=O)(=O)c1ccc(Nc2nccc(-c3cn(C4CCCCC4)nn3)n2)cc1	cell growth or viability, SRB	72 h		IC50	> 10 µM
C[C@H](NC(=O)[C@H](CCC(N)=O)NC(=O)[C@H](Cc1c[nH]c2ccccc12)NC(=O)[C@@H](N)CCCNC(=N)N)C(=O)N[C@@H](CCCNC(=N)N)C(=O)N[C@@H](Cc1c[nH]c2ccccc12)C(=O)N[C@@H](CCC(N)=O)C(=O)N[C@@H](Cc1c[nH]c2ccccc12)C(=O)N[C@@H](CCCNC(=N)N)C(N)=O	MTT	concentration not given, 24 h, 37 °C, 5% FBS	baseline: untreated cells	viability	52 ± 1%
CCCCCCCCCCn1c(-c2cccnc2)nc(-c2ccc(C)cc2)c1-c1ccc(C)cc1	cell growth or viability, SRB	48 h		IC50	94.5 µM
COc1ccc2c(c1)/C(=N\Nc1nnc3n1N=C(c1ccccc1)CS3)C(=O)N2	cell growth or viability, SRB	10 µM		inhibition	33%
CCCCCCCCC=CCCCCCCCCn1c(-c2cccnc2)nc(-c2ccc(C)cc2)c1-c1ccc(C)cc1	cell growth or viability, SRB	48 h		IC50	> 100 µM
CC(C)Cn1cc(-c2ccnc(Nc3ccc(OCCCCCCC(=O)NO)cc3)n2)nn1	cell growth or viability, SRB	72 h		IC50	1.92 µM
Cc1cc(C)nc(NC(=S)N2CCN(Cc3ccc(C(F)(F)F)cc3)CC2)c1		concentration not given, 4 h		glucose concentration	no effect
CCCCCCCCCCCCCCCCn1c(-c2cccnc2)nc(-c2ccc(C)cc2)c1-c1ccc(C)cc1	cell growth or viability, SRB	48 h		IC50	> 100 µM

For quick reference, copied from above:
SMILES	assay	setting	how to read	quantity	result
CC(=O)OC[C@H]1O[C@@H](Sc2sc(C(=O)c3ccc(C)cc3)c(N)c2-c2nc3ccccc3s2)[C@H](OC(C)=O)[C@@H](OC(C)=O)[C@@H]1OC(C)=O	SRB	10 µM, 48 h	baseline: untreated	growth	73.6%
COc1ccc2c(c1)CCn1c[n+]3c(c1-2)-c1ccc(OC)cc1CC3	Western blot, item: p-PERK Thr980, p-eIF2α Ser51	20 µM, 24 h		protein phosphorylation	increased
CCCCCCCCn1c(-c2cccnc2)nc(-c2ccc(C)cc2)c1-c1ccc(C)cc1	cell growth or viability, SRB	48 h		IC50	82.4 µM
